Measurements from different studies.
Lines come from different studies, so protocols differ. “And” joins repeats or separate records; there may be more than shown. ± marks the error that the study gave.
Ubiquitin carboxyl-terminal hydrolase 39 ZnF-UBD domain: Ubiquitin carboxyl-terminal hydrolase 39, ZnF-UBD domain (Homo sapiens, UniProt Q53GS9)
CYP2A6: Cytochrome P450 2A6 (CYP2A6, Homo sapiens, UniProt P11509)
CA1: Carbonic anhydrase 1 (CA1, Homo sapiens, UniProt P00915)
Inositol-tetrakisphosphate 1-kinase: Inositol-tetrakisphosphate 1-kinase (Homo sapiens, UniProt Q13572)
USP20 ZnF-UBD domain: Ubiquitin carboxyl-terminal hydrolase 20, ZnF-UBD domain (USP20, Homo sapiens, UniProt Q9Y2K6)
uncharacterized protein: uncharacterized protein (Solanum lycopersicum, UniProt A0A3Q7EJP1)
Alpha-carbonic anhydrase: Alpha-carbonic anhydrase (Enterococcus faecium, UniProt Q3XYE8)

SMILES	target	test	test system	conditions	scale	quantity	value
O=C(O)CCc1ccccc1OCc1ccccn1	Ubiquitin carboxyl-terminal hydrolase 39 ZnF-UBD domain	–	–	–	–	Kd	> 1000 µM
Cc1ccc(S(=O)(=O)OC[C@H]2CO[C@](Cn3ccnc3)(c3ccc(Cl)cc3Cl)O2)cc1	CYP2A6	binding	–	20 min, pH 7.4, purified protein, 2% DMSO	–	Kd	16.2 µM
NCCS(=O)(=O)O	Sodium- and chloride-dependent taurine transporter (SLC6A6, Homo sapiens, UniProt P31641, F58A)	microscale thermophoresis	–	F58A mutant	–	Kd	16.8 ± 4.72 µM
Nc1nc(-c2ccc(Cl)c(S(N)(=O)=O)c2)cs1	CA1	thermal shift	–	pH 7.0, 25 °C	–	Kd	5 µM
COc1cc2ncc(-c3ccccc3)nc2cc1OC	Mast/stem cell growth factor receptor Kit (KIT, Homo sapiens, UniProt P10721)	competition binding	–	11-point threefold dilution	–	Kd	0.027 µM
OC(CCc1ccc(Cl)cc1)Cn1ccnc1 (stereo not shown)	CYP2A6	binding	–	20 min, pH 7.4, purified protein, 2% DMSO	–	Kd	90.2 µM
O=C(C[C@@H](C(F)F)n1ccc(F)n1)N1CCC(O)(Cn2cnc3c(cnn3-c3ccc(F)cc3)c2=O)CC1	Ubiquitin carboxyl-terminal hydrolase 7 (USP7, Homo sapiens, UniProt Q93009, V517A)	isothermal titration calorimetry	–	USP7 V517A	–	Kd	0.039 ± 0.012 µM
CC(C)(C)c1ccc(S(=O)(=O)Nc2ccc(-n3ccnc3)cc2)cc1	CYP2A6	binding	–	20 min, pH 7.4, purified protein, 2% DMSO	–	Kd	5.94 µM
c1ccc(COc2[nH]cnc3ncnc2-3)cc1	Inositol-tetrakisphosphate 1-kinase	binding	–	–	–	Kd	1.7 ± 0.7 µM
CN1CCN(c2ccc(Nc3ncc4cc(C#N)c(=O)n(C5CCCC5)c4n3)cc2)CC1	Serine/threonine-protein kinase 24 (STK24, Homo sapiens, UniProt Q9Y6E0)	–	–	–	–	IC50	0.173 µM
Cc1cc2nc3c(=O)[nH]c(=O)nc-3n(C[C@H](O)[C@H](O)[C@H](O)COP(=O)(O)O)c2cc1C	NADH-dependent FMN reductase SfnF (sfnF, Pseudomonas fluorescens, UniProt Q3K9A2)	surface plasmon resonance	–	–	steady-state affinity	Kd	0.756 µM
Nc1ncnc2c1ncn2[C@@H]1O[C@H](COP(=O)(O)OP(=O)(O)OP(=O)(O)O)[C@@H](O)[C@H]1O	Creatine kinase U-type, mitochondrial (CKMT1A, Homo sapiens, UniProt P12532, E265Q)	microscale thermophoresis	–	pH 8.5, E227Q mutant, together with: creatine 10 mM	–	Kd	4 ± 2 µM
C[C@H](Cc1ccccc1)Nc1ncnc2c1ncn2[C@@H]1O[C@H](CO)[C@@H](O)[C@H]1O	adenosine A1 receptor, sheep	competition binding	striatum membranes	first site, dimer model, together with: 0.009 nM [3H]DPCPX	–	Kd	2e-05 ± 1e-05 µM
Cn1ccnc1C(O)c1ccc(F)cc1 (stereo not shown)	CYP2A6	binding	–	20 min, pH 7.4, purified protein, 2% DMSO	–	Kd	1380 µM
NC(=O)c1cc(-n2c(CCC(=O)O)nc3ccccc32)cs1	Ubiquitin carboxyl-terminal hydrolase 39 ZnF-UBD domain	–	–	–	–	Kd	> 1000 µM
Cn1ccnc1	CYP2A6	binding	–	20 min, pH 7.4, purified protein, 2% DMSO	–	Kd	189 µM
COC(=O)C[C@@H]1N=C(c2ccc(Cl)cc2)c2c(sc(C(=O)NCCOCCNC(=O)C[C@@H]3N=C(c4ccc(Cl)cc4)c4c(sc(C)c4C)-n4c(C)nnc43)c2C)-n2c(C)nnc21	Bromodomain-containing protein 3, BD1 (BRD3, Homo sapiens, UniProt Q15059)	–	–	–	–	Kd	0.00013 µM
O=C(O)Cc1cccnc1	USP20 ZnF-UBD domain	–	–	–	–	Kd	707 µM
Nc1ncnc2c1ncn2[C@@H]1O[C@H](COP(=O)(O)OP(=O)(O)NP(=O)(O)O)[C@@H](O)[C@H]1O	Inositol-tetrakisphosphate 1-kinase	binding	–	–	–	Kd	3.1 ± 0.4 µM
O=C(O)CCn1nnc(-c2ccccc2)n1	Ubiquitin carboxyl-terminal hydrolase 39 ZnF-UBD domain	–	–	–	–	Kd	> 1000 µM

SMILES	target	test	test system	conditions	scale	quantity	value
Cn1ccnc1C(O)c1ccccc1 (stereo not shown)	CYP2A6	binding	–	20 min, pH 7.4, purified protein, 2% DMSO	–	Kd	1220 µM
CC(=O)N1CCC[C@H]1C(=O)N[C@@H](CCC(N)=O)C(=O)N1CCC[C@H]1C(=O)N[C@H](C(=O)N[C@@H](CC(=O)O)C(=O)N[C@@H](CO)C(=O)N[C@@H](Cc1c[nH]c2ccccc12)C(=O)N[C@H](C(=O)O)C(C)C)C(C)C	affinity clamp fusion protein	binding, fluorescence titration	–	70 min, with translation components	–	Kd	0.125 ± 0.039 µM
CC[C@@H]1[C@H](F)C(=O)N[C@@H]1COc1nccc2cc(C(N)=O)c(OC)cc12	Serine/threonine-protein kinase 38 (STK38, Homo sapiens, UniProt Q15208)	ATP-site probe binding, ActivX profiling	THP-1 cell lysate	Lys2 site	–	IC50	0.35 µM
CCCCCCCCCCCCCCCCCC(=O)O	uncharacterized protein	binding, tyrosine fluorescence quenching	–	Stern-Volmer approximation	–	Kd	6.8 ± 0.1 µM
O=C(O)CN1Cc2ccccc2C1=O	USP20 ZnF-UBD domain	–	–	–	–	Kd	> 1000 µM
COc1cc(/C=C/C(=O)O)ccc1O	Nuclear pore complex protein Nup155 (Homo sapiens, UniProt O75694)	binding, microscale thermophoresis	–	15 min, room temperature, 0.05 % Tween-20, together with: 5 nM protein	–	Kd	0.0836 ± 0.00631 µM
NS(=O)(=O)c1nnc(NC(=O)CCC2CC3CCC2C3)s1 (stereo not shown)	Alpha-carbonic anhydrase	CO2 hydration, inhibitor, stopped-flow kinetics	–	–	–	Ki	0.0428 µM
Nc1ncnc2c1ncn2C1CCCO1 (stereo not shown)	Inositol-tetrakisphosphate 1-kinase	binding	–	–	–	Kd	1.8 ± 0.4 µM
COC1(C2=NCCN2)COc2ccccc2O1 (stereo not shown)	alpha2-adrenoceptor, rat	saturation radioligand binding	rat cortex membranes	pH 7.4, room temperature	–	Kd	0.00097 µM
CCCCCCCC(=O)OC[C@H](COP(=O)(O)O[C@@H]1[C@H](O)[C@H](O)[C@@H](OP(=O)(O)O)[C@H](OP(=O)(O)O)[C@H]1O)OC(=O)CCCCCCC	Kv7.2/Kv7.3(EEE) mutant channel	channel opening, activator, model fit of open probability	–	model 4, K3, E2 E3 fixed to WT	–	Kd	241 µM
Nc1nc2c(ncn2[C@@H]2O[C@H](COP(=O)(O)O)[C@@H](O)[C@H]2O)c(=O)[nH]1	GUK1 (Homo sapiens, UniProt Q16774)	ITC	–	pH 7.5, 20 mM HEPES, together with: 150 mM KCl	–	Kd	7.3 µM and 6.7 µM
CCCCCCCC/C=C\CCCCCCCC(=O)O	uncharacterized protein	binding, tyrosine fluorescence quenching	–	Stern-Volmer approximation	–	Kd	3.3 ± 0.2 µM
NS(=O)(=O)c1cnc(NC(=O)CC2CCCCC2)s1	Alpha-carbonic anhydrase	CO2 hydration, inhibitor, stopped-flow kinetics	–	–	–	Ki	0.77 µM
O=C(O)Cc1cccc2cccnc12	Ubiquitin carboxyl-terminal hydrolase 49, ZnF-UBD domain (USP49, Homo sapiens, UniProt Q70CQ1)	–	–	–	–	Kd	> 1000 µM
C[C@@H](c1nc(-c2ccc(C#N)cc2)cs1)[C@](O)(Cn1cncn1)c1cc(F)ccc1F	CYP2A6	binding	–	20 min, pH 7.4, purified protein, 2% DMSO	–	Kd	195 µM
O=C(O)Cn1ccc2ccccc2c1=O	Ubiquitin carboxyl-terminal hydrolase 39 ZnF-UBD domain	–	–	–	–	Kd	> 1000 µM
C=C1CCN([C@H](C)[C@](O)(Cn2cncn2)c2ccc(F)cc2F)CC1	CYP2A6	binding	–	20 min, pH 7.4, purified protein, 2% DMSO	–	Kd	113 µM
O=C(O)CNc1ncccn1	USP20 ZnF-UBD domain	–	–	–	–	Kd	574 µM
NS(=O)(=O)C(F)(F)F	CA1	urea denaturation shift, Trp fluorescence	–	5 µM, pH 6.0	–	Kd	0.163 µM
[H]/N=C(/N)NCC(=O)O	Sodium- and chloride-dependent taurine transporter (SLC6A6, Homo sapiens, UniProt P31641, F300A)	microscale thermophoresis	–	F300A mutant	–	Kd	no binding

Excerpt of the above:
SMILES	target	test	test system	conditions	scale	quantity	value
Nc1ncnc2c1ncn2[C@@H]1O[C@H](COP(=O)(O)OP(=O)(O)NP(=O)(O)O)[C@@H](O)[C@H]1O	Inositol-tetrakisphosphate 1-kinase	binding	–	–	–	Kd	3.1 ± 0.4 µM
O=C(O)CNc1ncccn1	USP20 ZnF-UBD domain	–	–	–	–	Kd	574 µM
